# Experimental data gathered from unrelated publications.
# Compare with care: the assays were run in different laboratories. Numbers after ± are the reported error.
Compound,assay,system,setting,endpoint,value
CCCCCCCCCC(=O)N[C@@H](Cc1c[nH]c2ccccc12)C(=O)N[C@H](CC(N)=O)C(=O)N[C@@H](CC(=O)O)C(=O)N[C@@H]1C(=O)NCC(=O)N[C@@H](CCCNC(=O)CCC(=O)N2Cc3ccccc3-c3c(nnn3CCC[C@H](NC(=O)CCCCC[N+]3=C(C=CC4=CC(=CC=C5N(C)c6ccccc6C5(C)C)CCC4)C(C)(C)c4ccccc43)C(=O)NCCCCNC(=O)CCC(=O)N3Cc4ccccc4C#Cc4ccccc43)-c3ccccc32)C(=O)N[C@@H](CC(=O)O)C(=O)N[C@H](C)C(=O)N[C@@H](CC(=O)O)C(=O)NCC(=O)N[C@H](CO)C(=O)N[C@@H]([C@H](C)CC(=O)O)C(=O)N[C@@H](CC(=O)c2ccccc2N)C(=O)O[C@@H]1C,,human plasma,"1 µM, up to 240 min, pH 7.4, 37 °C",half-life,> 4 h
CC(C)[C@@H]1NC(=O)[C@H](Cc2ccccc2)NC(=O)[C@@H]2NC(=O)[C@H](Cc3ccccc3)NC(=O)[C@@H]3CCCN3C(=O)CNC(=O)[C@H](Cc3ccccc3)NC(=O)[C@@H]3CNCCCC[C@@H](C(=O)O)NC(=O)[C@@H]4NC(=O)[C@H](CC(N)=O)NC(=O)CNC(=O)[C@H]([C@@H](O)C(=O)O)NC(=O)[C@H](CSC[C@@H](NC(=O)[C@H](CCC(N)=O)NC(=O)[C@H](CCCCNC(=O)c5ccc(NN)nc5)NC(=O)[C@@H](N)CS[C@H]4C)C(=O)N[C@@H](CS[C@H]2C)C(=O)N3)NC1=O [technetium-99m labelled],,"rat, saline control, small intestine","intravenous, 2 h after tracer, tracer 2 h after reperfusion",tissue uptake,0.39 ± 0.05 %ID/g
CC[C@H](C)[C@H](NC(=O)[C@H](Cc1ccccc1)NC(=O)[C@H](CCC(=O)O)NC(=O)[C@H](CCCNC(=N)N)NC(=O)[C@H](C)NC(=O)[C@H](C)NC(=O)[C@H](CCC(N)=O)NC(=O)[C@H](CCC(=O)O)NC(=O)[C@H](CCC(=O)O)NC(=O)[C@H](CC(C)C)NC(=O)[C@H](Cc1ccc(O)cc1)NC(=O)[C@H](CO)NC(=O)[C@H](CO)NC(=O)[C@@H](NC(=O)[C@H](CC(=O)O)NC(=O)[C@H](CO)NC(=O)[C@@H](NC(=O)[C@H](Cc1ccccc1)NC(=O)[C@@H](NC(=O)CNC(=O)[C@H](CCC(=O)O)NC(=O)[C@H](C)NC(=O)CCc1c[nH]cn1)[C@@H](C)O)[C@@H](C)O)C(C)C)C(=O)N[C@@H](C)C(=O)N[C@@H](Cc1c[nH]c2ccccc12)C(=O)N[C@@H](CC(C)C)C(=O)N[C@H](C(=O)N[C@@H](CCCNC(=N)N)C(=O)NCC(=O)N[C@@H](CCCNC(=N)N)C(=O)N[C@@H](CCCCNC(=O)COCCOCCNC(=O)COCCOCCNC(=O)CC[C@H](NC(=O)CCCCCCCCCCCCCCCCC(=O)O)C(=O)O)C(=O)NCC(=O)NCC(=O)N[C@@H](CO)C(=O)N[C@@H](CCCCNc1c(NCCCCCN(O)C(=O)CCC(=O)NCCCCCN(O)C(=O)CCC(=O)NCCCCCN(O)C(C)=O)c(=O)c1=O)C(=O)O)C(C)C [zirconium-89 labelled],,"rat, bone marrow","sc, 3 nmol/kg, 72 h, ex vivo",tissue uptake,0.38 %ID/g
C[C@@H](O)[C@@H](CO)NC(=O)[C@@H](CCCNC(=N)N)NC(=O)[C@@H]1CCCN1C(=O)[C@@H]1CSSC[C@H](NC(=O)[C@H](Cc2ccccc2)NC(=O)CN2CCN(CC(=O)O)CCN(CC(=O)O)CCN(CC(=O)O)CC2)C(=O)N[C@@H](Cc2ccc(O)cc2)C(=O)N[C@@H](Cc2ccccc2)C(=O)N[C@@H](CCC(N)=O)C(=O)N[C@@H](CC(N)=O)C(=O)N1 [gallium-68 labelled],,"Wistar rat, spleen","intravenous, 8 MBq, 60 min, group mean",tissue uptake,0.24 %ID/g
O=C(O)C[C@H](NC(=O)[C@H](CC(=O)O)NC(=O)[C@H](CC(=O)O)NC(=O)[C@H](CC(=O)O)NC(=O)[C@H](CC(=O)O)NC(=O)[C@H](CC(=O)O)NC(=O)[C@H](CC(=O)O)NC(=O)[C@H](CC(=O)O)NC(=O)[C@H](CC(=O)O)NC(=O)[C@H](CC(=O)O)NC(=O)[C@H](CC(=O)O)NC(=O)[C@H](CCCCNC(=O)c1ccc(C(=O)NCCOCCOB2BBBBBB3BBBB3B2)cc1)NC(=O)CN1CCN(CC(=O)O)CCN(CC(=O)O)CCN(CC(=O)O)CC1)C(=O)O [gallium-67 labelled],,"ddY male mice, spleen","intravenous, 37 kBq, 3 h",tissue uptake,0.04 %ID/g
COc1cccc2c1C(=O)c1c(O)c3c(c(O)c1C2=O)C[C@@](O)(C(=O)CO)C[C@@H]3O[C@H]1C[C@H](NC(=O)[C@@H]2CCCN2C(=O)CNC(=O)[C@H](CC(C)C)NC(=O)[C@H](C)NC(=O)CP(=O)(O)O)[C@H](O)[C@H](C)O1,,"healthy mice, plasma","intravenous, 23.6 mg/kg",AUC,28.4 µM·h
Cc1ccccc1NC(=O)Nc1ccc(CC(=O)N[C@@H](CCCCNC(=O)/C=C/c2cccnc2)C(=O)N[C@@H](CCCC(=O)O)C(=O)NC2(C(=O)NCCOCCOCCOCCOCC(=O)N[C@@H](CCCCNC(=S)Nc3ccc(C[C@H]4CN(CC(=O)O)CCN(CC(=O)O)CCN4CC(=O)O)cc3)C(N)=O)CCCCC2)cc1 [gallium-68 labelled],,human serum,"2 h, 37 °C, 68Ga-labelled",dissociation,< 5%
CC[C@H](C)[C@@H]([C@@H](CC(=O)N1CCC[C@H]1[C@H](OC)[C@@H](C)C(=O)N[C@H](C)[C@@H](O)c1ccccc1)OC)N(C)C(=O)[C@@H](NC(=O)[C@H](C(C)C)N(C)C(=O)OCc1ccc(NC(=O)[C@H](C)NC(=O)[C@@H](NC(=O)CCCCCN2C(=O)CC(SC[C@H](NC(=O)[C@H](CC(=O)O)NC(=O)[C@H](CCCNC(=N)N)NC(=O)[C@H](CC(=O)O)NC(=O)CCCCn3cc(CCCC(=O)Nc4nnc(S(N)(=O)=O)s4)nn3)C(=O)O)C2=O)C(C)C)cc1)C(C)C (some centres unmarked),"LC-MS, item: intact conjugate",mouse serum,"100 µg/mL, 37 °C",half-life,23 h

# For quick reference, copied from above:
Compound,assay,system,setting,endpoint,value
CC[C@H](C)[C@@H]([C@@H](CC(=O)N1CCC[C@H]1[C@H](OC)[C@@H](C)C(=O)N[C@H](C)[C@@H](O)c1ccccc1)OC)N(C)C(=O)[C@@H](NC(=O)[C@H](C(C)C)N(C)C(=O)OCc1ccc(NC(=O)[C@H](C)NC(=O)[C@@H](NC(=O)CCCCCN2C(=O)CC(SC[C@H](NC(=O)[C@H](CC(=O)O)NC(=O)[C@H](CCCNC(=N)N)NC(=O)[C@H](CC(=O)O)NC(=O)CCCCn3cc(CCCC(=O)Nc4nnc(S(N)(=O)=O)s4)nn3)C(=O)O)C2=O)C(C)C)cc1)C(C)C (some centres unmarked),"LC-MS, item: intact conjugate",mouse serum,"100 µg/mL, 37 °C",half-life,23 h
